Assay results gathered from unrelated publications.
Protocols differ between the studies behind these lines.
UniProt Q99720, sequence (whole entry, looked up): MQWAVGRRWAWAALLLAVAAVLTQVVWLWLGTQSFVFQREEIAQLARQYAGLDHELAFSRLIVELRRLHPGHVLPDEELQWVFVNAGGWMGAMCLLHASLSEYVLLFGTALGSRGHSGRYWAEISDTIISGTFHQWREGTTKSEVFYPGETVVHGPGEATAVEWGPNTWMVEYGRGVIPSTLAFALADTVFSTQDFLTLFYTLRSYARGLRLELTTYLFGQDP
UniProt P27448, sequence (whole entry, looked up): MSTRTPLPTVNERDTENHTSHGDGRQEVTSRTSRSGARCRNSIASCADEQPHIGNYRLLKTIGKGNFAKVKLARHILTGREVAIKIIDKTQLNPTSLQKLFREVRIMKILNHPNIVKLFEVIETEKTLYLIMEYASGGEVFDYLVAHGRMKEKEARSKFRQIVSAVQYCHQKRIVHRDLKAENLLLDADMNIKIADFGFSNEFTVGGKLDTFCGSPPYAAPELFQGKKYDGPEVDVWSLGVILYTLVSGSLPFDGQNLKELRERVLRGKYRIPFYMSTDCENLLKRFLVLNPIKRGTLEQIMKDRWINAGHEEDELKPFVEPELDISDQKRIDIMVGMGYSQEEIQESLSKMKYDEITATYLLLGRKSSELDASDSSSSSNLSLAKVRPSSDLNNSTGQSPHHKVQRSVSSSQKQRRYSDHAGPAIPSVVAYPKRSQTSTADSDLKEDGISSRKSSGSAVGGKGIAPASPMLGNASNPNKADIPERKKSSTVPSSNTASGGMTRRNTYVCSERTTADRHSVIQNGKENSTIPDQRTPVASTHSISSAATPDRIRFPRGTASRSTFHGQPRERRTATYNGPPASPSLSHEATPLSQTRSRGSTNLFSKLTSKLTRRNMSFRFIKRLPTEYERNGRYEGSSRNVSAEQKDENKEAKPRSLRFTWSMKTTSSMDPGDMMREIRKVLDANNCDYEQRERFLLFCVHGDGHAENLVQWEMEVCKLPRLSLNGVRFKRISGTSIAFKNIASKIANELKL
UniProt Q09428, sequence (whole entry, looked up): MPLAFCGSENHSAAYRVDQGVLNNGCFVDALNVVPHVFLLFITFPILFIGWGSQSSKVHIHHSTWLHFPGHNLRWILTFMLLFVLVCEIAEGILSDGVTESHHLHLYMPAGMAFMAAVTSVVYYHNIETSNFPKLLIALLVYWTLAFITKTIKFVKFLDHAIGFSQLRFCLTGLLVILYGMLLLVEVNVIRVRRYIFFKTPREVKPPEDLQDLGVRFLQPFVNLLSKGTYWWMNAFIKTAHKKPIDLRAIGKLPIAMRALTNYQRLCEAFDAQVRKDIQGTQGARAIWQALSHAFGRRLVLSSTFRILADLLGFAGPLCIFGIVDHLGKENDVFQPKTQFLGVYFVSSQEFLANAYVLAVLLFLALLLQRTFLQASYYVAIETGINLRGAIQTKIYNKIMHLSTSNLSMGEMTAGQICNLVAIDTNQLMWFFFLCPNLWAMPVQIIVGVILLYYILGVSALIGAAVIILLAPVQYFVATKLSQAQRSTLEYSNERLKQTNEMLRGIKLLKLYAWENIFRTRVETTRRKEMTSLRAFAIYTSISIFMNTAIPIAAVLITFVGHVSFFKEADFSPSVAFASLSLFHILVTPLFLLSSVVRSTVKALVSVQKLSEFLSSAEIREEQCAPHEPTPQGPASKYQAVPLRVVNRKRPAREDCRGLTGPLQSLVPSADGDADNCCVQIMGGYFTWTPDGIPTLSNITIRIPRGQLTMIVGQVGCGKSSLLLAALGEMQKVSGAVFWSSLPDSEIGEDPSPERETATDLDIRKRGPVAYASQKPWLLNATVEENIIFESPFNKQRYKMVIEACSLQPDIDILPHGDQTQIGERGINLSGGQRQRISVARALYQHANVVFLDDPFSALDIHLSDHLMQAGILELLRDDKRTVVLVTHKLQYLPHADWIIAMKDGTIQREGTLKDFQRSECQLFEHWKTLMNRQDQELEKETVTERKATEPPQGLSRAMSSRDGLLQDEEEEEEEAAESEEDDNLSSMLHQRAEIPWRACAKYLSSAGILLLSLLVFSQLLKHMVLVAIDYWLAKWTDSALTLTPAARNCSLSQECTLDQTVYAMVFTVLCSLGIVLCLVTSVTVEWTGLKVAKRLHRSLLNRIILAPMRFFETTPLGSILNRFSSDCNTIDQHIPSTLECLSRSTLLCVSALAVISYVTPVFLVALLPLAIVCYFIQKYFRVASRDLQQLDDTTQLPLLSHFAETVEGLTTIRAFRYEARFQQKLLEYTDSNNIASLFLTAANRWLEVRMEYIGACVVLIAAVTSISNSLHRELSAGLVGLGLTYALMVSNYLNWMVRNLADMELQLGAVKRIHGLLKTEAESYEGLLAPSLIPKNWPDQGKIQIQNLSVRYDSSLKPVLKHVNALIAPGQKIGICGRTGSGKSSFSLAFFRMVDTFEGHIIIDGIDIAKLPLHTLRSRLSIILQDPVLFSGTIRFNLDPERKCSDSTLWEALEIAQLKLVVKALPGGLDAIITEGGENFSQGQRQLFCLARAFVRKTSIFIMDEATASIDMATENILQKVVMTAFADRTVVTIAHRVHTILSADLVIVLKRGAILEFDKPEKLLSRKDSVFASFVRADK
UniProt O94804, sequence (whole entry, looked up): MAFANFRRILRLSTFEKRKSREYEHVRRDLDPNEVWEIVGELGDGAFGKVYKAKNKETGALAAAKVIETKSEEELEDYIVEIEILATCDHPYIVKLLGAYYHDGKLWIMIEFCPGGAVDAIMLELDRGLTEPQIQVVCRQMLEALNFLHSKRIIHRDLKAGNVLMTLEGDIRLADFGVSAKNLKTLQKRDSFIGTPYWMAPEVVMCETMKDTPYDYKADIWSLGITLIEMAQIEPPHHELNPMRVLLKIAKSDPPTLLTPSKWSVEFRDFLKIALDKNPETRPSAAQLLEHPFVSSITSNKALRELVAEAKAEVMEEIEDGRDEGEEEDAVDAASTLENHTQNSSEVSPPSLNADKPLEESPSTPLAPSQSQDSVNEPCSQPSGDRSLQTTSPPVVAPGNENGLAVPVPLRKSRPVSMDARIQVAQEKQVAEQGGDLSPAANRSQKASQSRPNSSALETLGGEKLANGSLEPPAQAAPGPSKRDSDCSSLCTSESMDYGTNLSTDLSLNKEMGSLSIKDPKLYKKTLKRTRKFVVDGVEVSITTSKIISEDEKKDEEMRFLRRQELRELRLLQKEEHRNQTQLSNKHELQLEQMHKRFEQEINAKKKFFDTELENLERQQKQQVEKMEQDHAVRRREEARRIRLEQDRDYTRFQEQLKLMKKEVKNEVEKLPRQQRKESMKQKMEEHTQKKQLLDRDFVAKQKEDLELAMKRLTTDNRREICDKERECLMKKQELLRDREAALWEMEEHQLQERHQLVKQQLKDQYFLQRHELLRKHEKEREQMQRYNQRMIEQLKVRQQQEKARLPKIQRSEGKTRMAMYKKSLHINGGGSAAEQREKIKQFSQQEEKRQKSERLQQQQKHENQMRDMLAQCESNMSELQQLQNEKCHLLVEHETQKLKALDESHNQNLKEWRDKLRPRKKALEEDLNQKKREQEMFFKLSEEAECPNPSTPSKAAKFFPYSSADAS
UniProt P52824, sequence (whole entry, looked up): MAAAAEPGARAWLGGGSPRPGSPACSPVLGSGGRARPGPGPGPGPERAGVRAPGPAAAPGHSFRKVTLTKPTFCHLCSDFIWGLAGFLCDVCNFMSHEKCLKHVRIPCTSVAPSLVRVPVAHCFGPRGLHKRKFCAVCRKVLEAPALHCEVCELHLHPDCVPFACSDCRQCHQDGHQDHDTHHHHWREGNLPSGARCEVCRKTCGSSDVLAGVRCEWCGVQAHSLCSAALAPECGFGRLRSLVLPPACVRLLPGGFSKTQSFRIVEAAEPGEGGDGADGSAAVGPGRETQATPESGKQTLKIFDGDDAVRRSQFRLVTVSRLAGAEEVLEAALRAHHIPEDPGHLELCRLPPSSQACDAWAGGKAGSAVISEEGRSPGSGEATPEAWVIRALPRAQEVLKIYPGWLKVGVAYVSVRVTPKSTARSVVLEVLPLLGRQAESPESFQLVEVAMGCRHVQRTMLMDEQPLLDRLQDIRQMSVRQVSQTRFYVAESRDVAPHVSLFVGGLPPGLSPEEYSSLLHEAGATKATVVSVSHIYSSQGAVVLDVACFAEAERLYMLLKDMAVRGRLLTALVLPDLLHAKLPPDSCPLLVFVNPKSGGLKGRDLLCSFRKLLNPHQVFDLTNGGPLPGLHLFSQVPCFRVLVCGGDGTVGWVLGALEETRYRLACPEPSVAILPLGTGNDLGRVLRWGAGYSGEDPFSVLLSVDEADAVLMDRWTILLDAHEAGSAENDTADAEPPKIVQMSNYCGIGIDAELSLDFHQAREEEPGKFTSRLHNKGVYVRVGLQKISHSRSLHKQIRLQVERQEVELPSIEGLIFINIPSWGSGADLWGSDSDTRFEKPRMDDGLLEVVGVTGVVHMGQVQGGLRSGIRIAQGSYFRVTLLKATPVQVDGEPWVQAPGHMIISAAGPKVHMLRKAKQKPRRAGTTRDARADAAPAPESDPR
UniProt P19525, sequence (whole entry, looked up): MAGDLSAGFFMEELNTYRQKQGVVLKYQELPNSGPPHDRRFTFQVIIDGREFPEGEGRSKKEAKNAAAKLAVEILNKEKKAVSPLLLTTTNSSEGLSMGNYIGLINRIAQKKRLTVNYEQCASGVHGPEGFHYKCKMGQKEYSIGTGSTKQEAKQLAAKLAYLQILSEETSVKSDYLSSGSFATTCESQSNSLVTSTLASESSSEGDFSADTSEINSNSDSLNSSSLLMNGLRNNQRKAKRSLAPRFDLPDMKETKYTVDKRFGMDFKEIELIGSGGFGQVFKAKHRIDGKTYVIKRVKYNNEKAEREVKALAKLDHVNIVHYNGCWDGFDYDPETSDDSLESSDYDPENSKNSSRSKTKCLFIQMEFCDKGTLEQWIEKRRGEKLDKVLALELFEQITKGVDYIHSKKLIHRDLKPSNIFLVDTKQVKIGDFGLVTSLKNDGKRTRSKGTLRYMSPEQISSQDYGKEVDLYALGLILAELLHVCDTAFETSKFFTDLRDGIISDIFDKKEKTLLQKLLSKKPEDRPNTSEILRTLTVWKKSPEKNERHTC

O=C(NC1CCN(c2ncnc3[nH]cnc23)CC1)c1cccc(NS(=O)(=O)c2ccc(C(F)(F)F)cc2)c1  inhibition (Replicase polyprotein 1ab, nsp14 (Human coronavirus OC43, UniProt P0C6X6); enzyme activity; 0.7812 µM): 50%
COc1ccc(F)cc1S(=O)(=O)Nc1cnc2c(c1)C(=O)NCCO2  inhibition (Estrogen receptor (ESR1, Homo sapiens, UniProt P03372); ligand displacement, radioligand; 10 µM): 8%
O=C(CN1CN(c2ccccc2)C2(CCN(C(=O)c3cnc4[nH]ncc4c3)CC2)C1=O)NCC(F)(F)F  inhibition (STK10 (Homo sapiens, UniProt O94804); inhibitor; concentration not given): < 50%
CS(C)(=O)=Nc1ccc(-c2ccc(-c3nc4cc(O[C@@H]5CO[C@H]6[C@@H]5OC[C@H]6O)[nH]c4cc3F)cc2)cc1  inhibition (EIF2AK2 (Homo sapiens, UniProt P19525); enzyme activity, inhibitor; 10 µM): 2%
CN(C)[C@H]1C[C@@]23CC[C@@]4(O2)C(=CC[C@]2(C)[C@@H](c5ccc6ccncc6c5)CC[C@H]24)C=C3[C@@H](O)[C@@H]1O  inhibition (Diacylglycerol kinase theta (DGKQ, Homo sapiens, UniProt P52824); ATP probe labelling, inhibitor, KiNativ profiling; 1 µM): 6.1%
CC(C)[C@H]1NC(=O)C[C@H]2/C=C/CCSSC[C@@H](NC1=O)C(=O)N[C@H](Cc1cccc3ccccc13)C(=O)NCC(=O)O2  inhibition (MARK3 (Homo sapiens, UniProt P27448); enzyme activity, inhibitor; 10 µM): -3.4%
CN[C@@H]1[C@H](O)[C@H](NC)[C@H]2O[C@]3(O)[C@H](O[C@@H]2[C@H]1O)O[C@H](C)C[C@H]3NC(=O)Cc1cc(Cl)ccn1  inhibition (SIGMAR1 (Homo sapiens, UniProt Q99720); ligand displacement, radioligand; 10 µM): 2%
C[C@H](NCc1ccc(-c2ccc(C(F)(F)F)cc2)cc1)C(N)=O  inhibition (ABCC8 (Homo sapiens, UniProt Q09428); radioligand binding, SafetyScreen panel; 1 µM, together with: 5.0 nM [3H]Glyburide): -7%
